Published values collected from several papers.
A part holds a random share of what one study measured.

Block 1 — technique: universal PBM; form: double-stranded DNA, one strand shown; sample: in vitro; tested at: 600 nM; reading: higher = stronger binding
Target: Sal-like protein 4, full length isoform A (SALL4, Homo sapiens, UniProt Q9UJQ4, residues 1-1053)
UniProt Q9UJQ4, sequence (whole entry, looked up): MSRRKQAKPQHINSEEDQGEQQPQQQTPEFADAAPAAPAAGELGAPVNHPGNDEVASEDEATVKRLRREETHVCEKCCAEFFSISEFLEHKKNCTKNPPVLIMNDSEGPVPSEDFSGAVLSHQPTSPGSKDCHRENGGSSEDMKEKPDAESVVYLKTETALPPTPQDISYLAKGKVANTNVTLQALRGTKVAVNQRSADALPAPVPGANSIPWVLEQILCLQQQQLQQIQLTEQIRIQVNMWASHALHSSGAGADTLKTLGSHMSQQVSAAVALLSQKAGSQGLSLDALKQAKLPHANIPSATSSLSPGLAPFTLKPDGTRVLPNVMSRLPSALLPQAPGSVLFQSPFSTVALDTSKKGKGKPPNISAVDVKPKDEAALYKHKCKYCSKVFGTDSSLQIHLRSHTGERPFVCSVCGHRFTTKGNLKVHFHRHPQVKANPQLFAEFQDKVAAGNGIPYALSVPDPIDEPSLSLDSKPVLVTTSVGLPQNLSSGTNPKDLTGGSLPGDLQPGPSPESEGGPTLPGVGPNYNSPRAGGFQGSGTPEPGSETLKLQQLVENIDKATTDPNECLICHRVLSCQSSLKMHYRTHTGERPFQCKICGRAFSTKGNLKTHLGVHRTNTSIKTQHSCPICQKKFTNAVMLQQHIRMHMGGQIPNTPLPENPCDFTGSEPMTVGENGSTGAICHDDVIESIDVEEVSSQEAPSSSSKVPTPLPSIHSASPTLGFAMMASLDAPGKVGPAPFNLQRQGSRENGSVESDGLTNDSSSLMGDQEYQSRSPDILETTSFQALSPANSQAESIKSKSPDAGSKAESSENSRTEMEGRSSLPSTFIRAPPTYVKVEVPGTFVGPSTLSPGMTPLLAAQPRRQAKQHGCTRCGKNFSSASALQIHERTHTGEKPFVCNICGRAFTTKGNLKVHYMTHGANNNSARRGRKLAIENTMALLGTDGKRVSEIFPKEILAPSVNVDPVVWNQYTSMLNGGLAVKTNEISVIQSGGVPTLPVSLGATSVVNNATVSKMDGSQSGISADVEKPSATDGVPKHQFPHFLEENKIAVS
Notes: 8-mer, flanks averaged, mean of replicates
Oligonucleotide | E-score
GTGCGATA | 0.101
CGATGTGC | -0.199
TAGTTAGA | 0.209
AAGGTAGG | 0.0408
ACCGGGAA | -0.0341
ACAAGGTG | -0.0523
ACTGTACA | 0.0823
CCCACCCG | -0.19
CTTTCATA | 0.343
CAGAAATA | 0.328
AATGGTTA | 0.144
AAGACTGT | -0.00822
CGAACTAC | -0.0771
ACACGAGC | -0.0634
ATGGATAA | 0.257
CCTGCCGA | -0.21
TGGTTTAA | 0.198
CTCAGAAG | -0.176
AATGGGCA | 0.0171
CCCAAGGG | -0.355
GAGTGATC | -0.0781
CTTTATGC | 0.148
ACGCCTGG | -0.265
CAGTTGGG | -0.135
GCAAAGAC | 0.0791

Block 2 — technique: protein binding microarray; form: double-stranded DNA, one strand shown; sample: in vitro; tested at: not given; baseline: not given; reading: higher = stronger binding
Target: Histone acetyltransferase KAT6A, both winged helices, GST fusion (KAT6A, Homo sapiens, UniProt Q92794, residues 1-181)
Notes: 8-mer, flanks averaged, mean of 2 arrays, mostly near background
Residues (chain): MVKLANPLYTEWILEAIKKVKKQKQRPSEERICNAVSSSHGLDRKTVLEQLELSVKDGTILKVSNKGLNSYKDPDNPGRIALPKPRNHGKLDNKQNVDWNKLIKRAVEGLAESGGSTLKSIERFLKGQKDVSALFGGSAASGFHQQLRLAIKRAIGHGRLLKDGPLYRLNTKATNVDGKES
Oligonucleotide | E-score
GACGTCAC | 0.0105
AAGTTCTC | -0.171
ATCCATAC | -0.0189
ACTTGTCC | 0.103
CTACAACA | -0.094
GGCGCCCA | 0.167
ACCCCAAT | -0.297
TAAAAGGA | -0.179
GCAACCGA | -0.0701
CCTGGAAG | -0.166
AGCCCAGC | -0.107
ACTATGGC | -0.044
AAGGCTGA | -0.144
CGGTTGAC | 0.155
GCACGTCA | -0.0302
CAATACTC | -0.143
CCGGTAGG | 0.15
ATGTGTGC | -0.0968
CCCAGTTC | -0.258
CCTGATAA | -0.122
AGCCATTG | -0.124
ATGTAAGG | -0.2
ATTATTCG | -0.0589
AACCAGGC | -0.0655

Block 3 — technique: protein-binding microarray; form: double-stranded DNA, one strand shown; sample: in vitro; tested at: 2200 nM top; notes: 60-bp whole probe; together with: salmon DNA 0.4 mg/ml; baseline: random background probes; reading: higher = stronger binding; constant ends, left off below: GCCTAGCAC … GTCTTGATTCGCTTGACGCTGCTG
Target: Interferon regulatory factor 7, full length, phosphomimetic (IRF7, Homo sapiens, UniProt Q92985, residues 1-503, S471D/S472D/S475D/S476D/S477D/S483D/S484D/S487D)
Residues (chain): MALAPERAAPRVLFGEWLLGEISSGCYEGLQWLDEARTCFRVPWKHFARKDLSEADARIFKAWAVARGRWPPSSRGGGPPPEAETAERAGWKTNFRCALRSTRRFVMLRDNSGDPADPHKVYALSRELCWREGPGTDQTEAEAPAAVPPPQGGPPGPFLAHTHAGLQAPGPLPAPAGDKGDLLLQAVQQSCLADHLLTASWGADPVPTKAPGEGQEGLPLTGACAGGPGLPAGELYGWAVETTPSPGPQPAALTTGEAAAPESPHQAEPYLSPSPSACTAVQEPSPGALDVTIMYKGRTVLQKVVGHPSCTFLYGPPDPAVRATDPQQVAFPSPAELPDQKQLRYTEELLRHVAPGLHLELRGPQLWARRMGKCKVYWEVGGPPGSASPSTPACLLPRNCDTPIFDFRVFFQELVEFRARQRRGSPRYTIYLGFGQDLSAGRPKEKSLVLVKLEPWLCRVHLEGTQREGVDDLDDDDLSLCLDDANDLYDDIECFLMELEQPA
Oligonucleotide | fitted relative affinity [z-score]
GACGATATCGAGTATCGAGACGTGCTA | 0.121
GACGGACTGGACTTTCGGGAAGTGCTA | 0.736
TCATCTTTTCTGTTGTCACTGTGCTAG | 3.11
GACGGTTTCCGGTATCGGGACGTGCTA | 2.61
TTCGGACTGCTTATCCTTTAGTGCTAG | 1.09
TTAGGTTCACTTTTCCTTTAGTGCTAG | 4.14
GACGGTTTCCTTCTCGTGACGTGCTAG | 2.74
TTAGGTTTCCTTTTCCTGTAGTGCTAG | 5.09
TTAGGACTGGACACTGGCTTAGTGCTA | -0.692
GACGGTTTCCTTCTCCGGACGTGCTAG | 2.88
GACGGACTGCTTCTACTGACGTGCTAG | 0.252
GACGATATCGGGGATCGAGACGTGCTA | -0.0324
TTAGGTTACGGGTATCGGTTAGTGCTA | 0.895
TTAGATTCCGGGTATCGATTAGTGCTA | 1.11
GAGGATATCAGTTTCGAGACGTGCTAG | 3.43
TTAGAACTGAGACTGCATTAGTGCTAG | -0.766
TTAGGTTTCCTTTGCCTTTAGTGCTAG | 1.93
TCATTTCTTTACTTCACACTGTGCTAG | 2.32
TTAGATATCGGGTATCGATTGGTGCTA | 0.295
TTAGTTATCAGTATCGATTAGTGCTAG | 0.782
TTAGGTATCGTTTTCCTTTAGTGCTAG | 3.41
AACGGTCTCGGTTTCGGGACGTGCTAG | 4.15
GACGGTTTCTGTTTCGGGACGTGCTAG | 7.8
TTAGGTATCGCTTTCGGTTAGTGCTAG | 7.8
TCACTTTGGCCTCTAGGACTGTGCTAG | 1.32

Block 4 — technique: RNA Bind-n-Seq; form: RNA; sample: in vitro; tested at: 365 nM; baseline: no-protein control; reading: higher = stronger binding
Target: RNA binding protein fox-1 homolog 2, RRM domain, GST-SBP tag (RBFOX2, Homo sapiens, UniProt O43251-10, residues 100-194)
Notes: natural RNA segment, single round, ends assumed
Constant ends, left off below: GGGAGUUCUACAGUCCGACGAUC … UGGAAUUCUCGGGUGCCAA
Target sequence (chain): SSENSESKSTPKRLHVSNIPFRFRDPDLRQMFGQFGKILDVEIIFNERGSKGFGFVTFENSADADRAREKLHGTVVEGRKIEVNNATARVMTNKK
Oligonucleotide | RBNS enrichment (R)
UUCUCUCUCCUGUAAAUCCACGAGCACGGUCUGGAUCUGGAUGAAUAAAUAUAUUUCCUUAGGUGAUUUGGAUUUAUAACUUCUAUGGUCAUUCUUCCAAAGCUCUUUCC | 0.641
GAAUCGGUCCAGUUAAGUGCAUGCAAAACGCCACCAAUGAAGGGAUUCUAUCCAGCAAGGUCCUGUUUCCAAGAGUAGCCUAUGGAAUCUGAUCAGUUACUUUAAAAAAU | 10.7
GAGCUAGGGGGAGGAGUCAUUGUGGCACAAGUAUUUGUACAUACUCUGCUUCUCUCUGUCAGCGUCCUGCUGCUCUAGAAGACUGUCCGUGGAUGAGUUUAGUGUACAGA | 0.306
AUUGCCCAAAAAACUGAAGAGUCAGCAGAUGCCAGGAGGAAAGCUGAGCUGCUACAAAAUGAAGCAAAAACACUCUUGGCUCAAGCUAACAGCAAGCUCCAGCUGUUGGA | 0.416
CUCCUAAAAAUAUCAUUGUUCUUGGGAGCAGUGUAUGUUACUUUACAUAGCAGCGGUUCCUGUCAUGUGUUCAUGUCAGAAUAUUUUUGGUUUUAAACUUUCUUAUUGCC | 0.622
UCUUUUUUCCUAUUUUAAAAGUUCUAGUGGUAACACAAACUGUAAAUUUGAGUCAGAAUGUUUGGAGAAAUGUUGUUUUUUUUUUUUUCAGAGACUACUUUGUCACUCAC | 1.42
AGUAUCAUGGGACUUGUGACAAUACAAGACAUGAAUCUAUGUAUAAAAUUUAUCGGCCUUUCUCAUUUACCUGCUCUAGUAUUAUUGUAUUGUGUGUGCGUGCGUGUGUG | 0.669
AGCUUUUCUCCAUCCGCAGACAGCCCUGUUCAGAGAGUACCGAGCACCAGCCCUGUGCGGCUUCCUCAUCCCCACCUCACCCCCAACCACUACUGUAGGGCACAAUGACU | 0.384
CUUAAUAGGAUGGUGCCCAUAUAGGUGAGCAUCCCUUUAGAUCAUGGGAACCAGCAGACUGCAUUCCUAAUCUUCAUUAUGCCUGAGACUUGUCUUACAAUGUUACCUUU | 0.293
CGAUUGUUUCGGAUCAUAUUGAUCUCUUUCCUUUUUCCUUUUGUCCUUUCACUGUAUGACUUGAAUCAGUUUUGAUUCUAUUUGUAAGUGUUUCUUGUCGUGAGGCACCU | 1.08
CCUCUGUCGGGAUUGUAUCUCGACAUCCCUGUCGCGUUUUUCUUAGCUGGAGUGUGUGCUGCCUUUCAGGUACAACUUUUAUGUAAUAAAAGCCAGAGCAUUAAGCUUAC | 0.304
AUAGCAUUUACAGCCCCGGGCUGUACCCAGACCAGGCUACCUGGGCAGCACAAAGGGCAAGGAGAGCCCCAACCCCAGUUGCUCCAAGCUCCCCAAUCACUUAGUCUUCA | 0.955

Excerpt of the above (block 3):
Oligonucleotide | fitted relative affinity [z-score]
GAGGATATCAGTTTCGAGACGTGCTAG | 3.43
TTAGAACTGAGACTGCATTAGTGCTAG | -0.766
TTAGGTTTCCTTTGCCTTTAGTGCTAG | 1.93
TCATTTCTTTACTTCACACTGTGCTAG | 2.32
TTAGATATCGGGTATCGATTGGTGCTA | 0.295
